Experimental data of several laboratories.
Lines come from different studies, so protocols differ. ± gives the spread as reported.
ADRB1: Beta-1 adrenergic receptor (ADRB1, Homo sapiens, UniProt P08588)
Chain of UniProt P08588 (whole entry, looked up): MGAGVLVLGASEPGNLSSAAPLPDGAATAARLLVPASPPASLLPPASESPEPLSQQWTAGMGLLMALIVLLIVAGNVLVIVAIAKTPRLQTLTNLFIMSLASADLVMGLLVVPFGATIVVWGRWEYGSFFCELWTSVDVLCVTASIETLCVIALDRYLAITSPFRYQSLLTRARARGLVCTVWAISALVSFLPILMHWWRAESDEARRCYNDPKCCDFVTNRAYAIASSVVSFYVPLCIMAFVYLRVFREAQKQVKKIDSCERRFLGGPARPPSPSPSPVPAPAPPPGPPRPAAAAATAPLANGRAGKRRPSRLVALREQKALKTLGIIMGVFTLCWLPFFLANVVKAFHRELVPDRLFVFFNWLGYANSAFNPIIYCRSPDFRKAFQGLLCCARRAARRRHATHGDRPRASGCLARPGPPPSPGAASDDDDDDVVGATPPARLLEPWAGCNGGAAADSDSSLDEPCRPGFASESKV
VIPR2: Vasoactive intestinal polypeptide receptor 2 (VIPR2, Homo sapiens, UniProt P41587)
Chain of UniProt P41587 (whole entry, looked up): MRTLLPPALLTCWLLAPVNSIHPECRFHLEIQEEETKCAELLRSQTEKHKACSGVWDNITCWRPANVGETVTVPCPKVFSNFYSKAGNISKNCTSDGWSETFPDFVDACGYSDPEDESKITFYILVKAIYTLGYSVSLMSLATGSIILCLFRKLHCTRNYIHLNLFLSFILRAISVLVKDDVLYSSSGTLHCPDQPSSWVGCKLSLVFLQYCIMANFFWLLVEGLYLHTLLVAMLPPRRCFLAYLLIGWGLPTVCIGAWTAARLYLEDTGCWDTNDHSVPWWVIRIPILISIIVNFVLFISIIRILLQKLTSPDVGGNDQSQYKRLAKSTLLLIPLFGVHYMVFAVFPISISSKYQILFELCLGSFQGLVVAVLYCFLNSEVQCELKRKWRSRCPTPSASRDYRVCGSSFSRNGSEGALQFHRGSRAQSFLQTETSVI
Chain of UniProt Q6P2M8 (whole entry, looked up): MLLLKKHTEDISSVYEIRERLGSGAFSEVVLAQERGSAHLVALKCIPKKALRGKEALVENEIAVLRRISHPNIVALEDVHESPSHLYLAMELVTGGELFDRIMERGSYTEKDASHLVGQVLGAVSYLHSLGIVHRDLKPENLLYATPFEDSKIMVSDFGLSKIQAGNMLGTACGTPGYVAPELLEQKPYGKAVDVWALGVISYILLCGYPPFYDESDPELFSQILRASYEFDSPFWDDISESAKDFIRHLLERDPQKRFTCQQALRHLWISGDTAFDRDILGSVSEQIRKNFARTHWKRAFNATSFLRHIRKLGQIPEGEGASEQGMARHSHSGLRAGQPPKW
Chain of UniProt P21554 (whole entry, unmodified, looked up): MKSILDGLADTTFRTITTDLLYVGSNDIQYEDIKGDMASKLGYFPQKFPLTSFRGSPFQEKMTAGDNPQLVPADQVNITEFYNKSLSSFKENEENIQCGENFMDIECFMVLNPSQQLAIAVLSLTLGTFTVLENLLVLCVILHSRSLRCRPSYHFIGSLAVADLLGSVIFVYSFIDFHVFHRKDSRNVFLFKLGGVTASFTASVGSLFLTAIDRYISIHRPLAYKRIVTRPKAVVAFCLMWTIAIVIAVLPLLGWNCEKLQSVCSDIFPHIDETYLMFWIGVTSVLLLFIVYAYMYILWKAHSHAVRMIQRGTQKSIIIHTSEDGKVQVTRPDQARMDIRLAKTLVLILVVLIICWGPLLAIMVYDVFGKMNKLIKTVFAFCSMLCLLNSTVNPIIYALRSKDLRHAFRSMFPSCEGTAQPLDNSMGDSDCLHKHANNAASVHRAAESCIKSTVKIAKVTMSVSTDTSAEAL
Chain of UniProt P41143 (whole entry, unmodified, looked up): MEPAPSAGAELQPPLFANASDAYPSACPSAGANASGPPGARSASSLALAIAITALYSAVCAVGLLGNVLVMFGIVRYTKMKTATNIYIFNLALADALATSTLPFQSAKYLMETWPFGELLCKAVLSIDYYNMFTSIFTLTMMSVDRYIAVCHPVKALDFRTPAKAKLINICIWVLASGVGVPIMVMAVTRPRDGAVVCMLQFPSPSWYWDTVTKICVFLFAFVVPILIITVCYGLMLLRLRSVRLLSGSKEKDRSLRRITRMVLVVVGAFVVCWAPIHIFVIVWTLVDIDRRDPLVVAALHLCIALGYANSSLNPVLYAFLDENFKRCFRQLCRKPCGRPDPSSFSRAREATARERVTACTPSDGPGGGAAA
Chain of UniProt P08908 (whole entry, looked up): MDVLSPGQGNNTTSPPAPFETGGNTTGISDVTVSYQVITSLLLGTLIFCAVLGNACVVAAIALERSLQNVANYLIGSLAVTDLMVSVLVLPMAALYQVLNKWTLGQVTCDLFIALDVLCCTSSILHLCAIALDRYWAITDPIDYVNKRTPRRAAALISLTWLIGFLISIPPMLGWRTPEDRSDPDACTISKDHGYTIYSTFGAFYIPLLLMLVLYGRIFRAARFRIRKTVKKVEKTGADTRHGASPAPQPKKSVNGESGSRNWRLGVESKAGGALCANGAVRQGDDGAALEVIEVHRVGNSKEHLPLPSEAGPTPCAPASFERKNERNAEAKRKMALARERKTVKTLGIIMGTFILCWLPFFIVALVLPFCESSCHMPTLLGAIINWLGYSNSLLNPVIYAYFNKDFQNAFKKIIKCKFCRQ
Chain of UniProt Q8IYT8 (whole entry, looked up): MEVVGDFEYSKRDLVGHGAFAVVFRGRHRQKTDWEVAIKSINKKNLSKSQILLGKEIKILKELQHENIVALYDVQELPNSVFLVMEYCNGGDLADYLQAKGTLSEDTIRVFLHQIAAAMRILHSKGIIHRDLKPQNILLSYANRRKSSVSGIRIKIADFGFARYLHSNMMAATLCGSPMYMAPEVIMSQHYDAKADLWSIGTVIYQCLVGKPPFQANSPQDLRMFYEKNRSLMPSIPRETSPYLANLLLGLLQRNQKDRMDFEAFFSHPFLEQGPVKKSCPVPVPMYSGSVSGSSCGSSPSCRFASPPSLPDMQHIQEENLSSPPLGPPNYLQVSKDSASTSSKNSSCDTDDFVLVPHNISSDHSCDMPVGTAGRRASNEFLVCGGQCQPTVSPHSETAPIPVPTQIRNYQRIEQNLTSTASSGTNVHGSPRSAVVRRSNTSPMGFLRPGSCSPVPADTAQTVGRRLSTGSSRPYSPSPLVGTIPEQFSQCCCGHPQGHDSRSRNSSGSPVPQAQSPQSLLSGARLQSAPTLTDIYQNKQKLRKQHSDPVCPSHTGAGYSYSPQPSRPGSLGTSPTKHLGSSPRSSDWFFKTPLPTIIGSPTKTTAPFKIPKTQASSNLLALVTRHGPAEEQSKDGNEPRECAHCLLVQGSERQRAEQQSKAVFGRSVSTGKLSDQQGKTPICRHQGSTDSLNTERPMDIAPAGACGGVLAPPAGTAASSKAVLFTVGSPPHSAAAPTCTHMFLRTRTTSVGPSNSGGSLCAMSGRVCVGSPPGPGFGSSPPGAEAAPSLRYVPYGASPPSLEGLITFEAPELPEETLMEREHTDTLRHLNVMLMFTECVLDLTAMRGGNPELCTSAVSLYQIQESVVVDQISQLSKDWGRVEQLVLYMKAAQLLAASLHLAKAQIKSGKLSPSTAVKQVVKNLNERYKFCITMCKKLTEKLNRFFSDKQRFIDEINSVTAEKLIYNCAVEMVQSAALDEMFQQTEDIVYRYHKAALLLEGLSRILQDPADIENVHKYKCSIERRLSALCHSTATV
Chain of UniProt P35348 (whole entry, looked up): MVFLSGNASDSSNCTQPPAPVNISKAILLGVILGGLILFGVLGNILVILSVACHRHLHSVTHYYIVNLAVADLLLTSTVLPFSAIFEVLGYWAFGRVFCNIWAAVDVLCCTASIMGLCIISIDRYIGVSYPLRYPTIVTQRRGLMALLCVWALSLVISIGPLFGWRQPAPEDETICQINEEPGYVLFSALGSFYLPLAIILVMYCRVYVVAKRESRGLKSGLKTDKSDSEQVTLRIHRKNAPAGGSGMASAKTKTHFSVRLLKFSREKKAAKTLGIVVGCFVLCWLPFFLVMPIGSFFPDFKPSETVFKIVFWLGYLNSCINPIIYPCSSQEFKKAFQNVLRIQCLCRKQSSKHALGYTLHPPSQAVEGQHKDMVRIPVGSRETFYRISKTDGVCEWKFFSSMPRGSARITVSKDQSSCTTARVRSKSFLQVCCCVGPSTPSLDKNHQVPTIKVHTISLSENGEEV
Chain of UniProt P08172 (whole entry, looked up): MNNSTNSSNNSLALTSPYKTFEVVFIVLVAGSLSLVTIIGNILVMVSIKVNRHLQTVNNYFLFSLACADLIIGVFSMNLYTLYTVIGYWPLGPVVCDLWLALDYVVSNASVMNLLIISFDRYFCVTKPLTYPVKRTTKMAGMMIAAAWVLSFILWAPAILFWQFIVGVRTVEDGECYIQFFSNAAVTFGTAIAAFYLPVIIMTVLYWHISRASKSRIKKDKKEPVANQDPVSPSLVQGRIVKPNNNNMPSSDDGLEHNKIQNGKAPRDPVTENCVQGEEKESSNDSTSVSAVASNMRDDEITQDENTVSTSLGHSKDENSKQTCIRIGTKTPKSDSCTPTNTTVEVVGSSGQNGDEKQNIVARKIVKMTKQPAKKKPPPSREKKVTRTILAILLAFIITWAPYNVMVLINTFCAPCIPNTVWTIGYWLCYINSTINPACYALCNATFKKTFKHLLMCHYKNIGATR
Chain of UniProt P00784 (whole entry, looked up): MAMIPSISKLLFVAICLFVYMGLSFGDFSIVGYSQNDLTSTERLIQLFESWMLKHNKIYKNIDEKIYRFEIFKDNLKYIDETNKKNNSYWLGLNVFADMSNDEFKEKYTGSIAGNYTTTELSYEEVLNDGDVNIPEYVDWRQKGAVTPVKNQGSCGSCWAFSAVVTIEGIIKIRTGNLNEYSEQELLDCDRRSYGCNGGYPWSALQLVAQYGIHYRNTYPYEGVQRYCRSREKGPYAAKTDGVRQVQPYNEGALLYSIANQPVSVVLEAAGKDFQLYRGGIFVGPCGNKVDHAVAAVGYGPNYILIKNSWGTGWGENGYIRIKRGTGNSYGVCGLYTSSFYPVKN

The IC50 of O=C(O)CCn1c(=O)oc2cc(Cl)c(Cl)cc21 is reported as over 50100 nM (CHRM2 (Homo sapiens, UniProt P08172); antagonist; median value).
CN(C)[C@H]1C[C@@]23CC[C@@]4(O2)C(=CC[C@]2(C)[C@@H](c5ccc6ccncc6c5)CC[C@H]24)C=C3[C@@H](O)[C@@H]1O has an inhibition of -1.1% (PNCK (Homo sapiens, UniProt Q6P2M8); ATP probe labelling, inhibitor, KiNativ profiling; 0.1 µM).
For CCN(CC)C(=O)[C@@H]1C=C2c3cccc4c3c(cn4C(=O)c3ccco3)C[C@H]2N(C)C1, the Ki was over 10000 nM (ADRB1; ligand displacement, radioligand).
CC(C)CC(C(=O)N1CC2(CC1C#N)C(=O)Nc1ccccc12)N(C)C(=O)c1cc2c(F)cc(F)c(F)c2[nH]1 (stereo not shown) gave an IC50 of over 100000 nM (Papain (Carica papaya, UniProt P00784); enzyme activity, inhibitor).
For CCN(CC)C(=O)c1ccc(C(c2cccc(O)c2)N2CC(C)N(Cc3ccccc3)CC2C)cc1 (stereo not shown), the Ki was 1.12 ± 0.59 nM (OPRD1 (Homo sapiens, UniProt P41143, W284A)).
CSCC[C@H](NC(=O)[C@H](CCC(N)=O)NC(=O)[C@H](CCCCN)NC(=O)[C@H](CCCNC(=N)N)NC(=O)[C@H](Cc1ccc(O)cc1)NC(=O)[C@H](CCCNC(=N)N)NC(=O)[C@H](CO)NC(=O)[C@H](Cc1ccc(O)cc1)NC(=O)[C@H](CO)NC(=O)[C@H](CC(=O)O)NC(=O)[C@@H](NC(=O)[C@@H](N)Cc1ccccc1)[C@@H](C)O)C(=O)N[C@@H](C)C(=O)N[C@H](C(=O)N[C@@H](CCCCN)C(=O)N[C@@H](CCCCN)C(=O)N[C@@H](Cc1ccc(O)cc1)C(=O)N[C@@H](CC(C)C)C(=O)N[C@@H](C)C(=O)N[C@@H](C)C(=O)N[C@H](C(=O)N[C@@H](CC(C)C)C(=O)NCC(=O)N[C@@H](CCCCN)C(=O)N[C@@H](CCCNC(=N)N)C(=O)N[C@@H](Cc1ccc(O)cc1)C(=O)N[C@@H](CCCCN)C(=O)N[C@@H](CCC(N)=O)C(=O)N[C@@H](CCCCn1cc(C[C@H](NC(=O)CNC(=O)[C@H](CO)NC(=O)[C@H](CCCNC(=N)N)NC(=O)[C@H](CO)NC(=O)[C@H](CC(C)C)NC(=O)[C@H](CC(C)C)NC(=O)CNC(=O)[C@H](C)NC(=O)[C@H](CC(C)C)NC(=O)[C@H](CCCNC(=N)N)NC(=O)[C@H](Cc2c[nH]cn2)NC(=O)[C@@H](NC(=O)[C@@H](N)C(C)C)[C@@H](C)O)C(=O)N[C@H](C(=O)N[C@H](C(=O)N[C@@H](CCCCN)C(=O)N[C@@H](CC(N)=O)C(=O)N[C@@H](CC(N)=O)C(=O)N[C@@H](Cc2ccccc2)C(=O)N[C@H](C(=O)N2CCC[C@H]2C(=O)N[C@H](C(=O)N[C@@H](CC(N)=O)C(=O)N[C@H](C(=O)NCC(=O)N[C@@H](CO)C(=O)N[C@@H](CCCCN)C(=O)N[C@@H](C)C(=O)N[C@@H](Cc2ccccc2)C(N)=O)C(C)C)[C@@H](C)O)C(C)C)C(C)C)C(C)C)nn1)C(=O)N[C@H](C(=O)N[C@@H](CCCCN)C(=O)N[C@@H](CC(N)=O)C(=O)N[C@@H](CCCCN)C(N)=O)C(C)C)C(C)C)C(C)C gave a Kb of 631 nM (VIPR2; cAMP accumulation, antagonist; added: PACAP-27).
COc1ccccc1C(C[N+](=O)[O-])c1c(-c2ccccc2)[nH]c2ccccc12 (stereo not shown) gave an EC50 of 590 nM (CNR1 (Homo sapiens, UniProt P21554, V249A); G protein activation, agonist, BRET).
O=C1NC2(CC2)COc2ncc(F)cc2[C@H]2COCCN2c2ccn3ncc1c3n2 — result for “serum total bilirubin”: 1.3 ± 0.3 µmol/L (Sprague-Dawley rat, female, serum; oral, 20 mg/kg/day, end of recovery, 4-week subacute toxicity).
The inhibition of CS(C)(=O)=Nc1ccc(-c2ccc(-c3nc4cc(O[C@@H]5CO[C@H]6[C@@H]5OC[C@H]6O)[nH]c4cc3F)cc2)cc1 is reported as -4% (ULK2 (Homo sapiens, UniProt Q8IYT8); enzyme activity, inhibitor; 10 µM).
For CSCC[C@H](NC(=O)[C@H](CCC(N)=O)NC(=O)[C@H](CCCCN)NC(=O)[C@H](CCCNC(=N)N)NC(=O)[C@H](Cc1ccc(O)cc1)NC(=O)[C@H](CCCNC(=N)N)NC(=O)[C@H](CO)NC(=O)[C@H](Cc1ccc(O)cc1)NC(=O)[C@H](CO)NC(=O)[C@H](CC(=O)O)NC(=O)[C@@H](NC(=O)[C@@H](N)Cc1ccccc1)[C@@H](C)O)C(=O)N[C@@H](C)C(=O)N[C@H](C(=O)N[C@@H](CCCCN)C(=O)N[C@@H](CCCCn1cc(C[C@H](NC(=O)CNC(=O)[C@H](CO)NC(=O)[C@H](CCCNC(=N)N)NC(=O)[C@H](CO)NC(=O)[C@H](CC(C)C)NC(=O)[C@H](CC(C)C)NC(=O)CNC(=O)[C@H](C)NC(=O)[C@H](CC(C)C)NC(=O)[C@H](CCCNC(=N)N)NC(=O)[C@H](Cc2c[nH]cn2)NC(=O)[C@@H](NC(=O)[C@@H](N)C(C)C)[C@@H](C)O)C(=O)N[C@H](C(=O)N[C@H](C(=O)N[C@@H](CCCCN)C(=O)N[C@@H](CC(N)=O)C(=O)N[C@@H](CC(N)=O)C(=O)N[C@@H](Cc2ccccc2)C(=O)N[C@H](C(=O)N2CCC[C@H]2C(=O)N[C@H](C(=O)N[C@@H](CC(N)=O)C(=O)N[C@H](C(=O)NCC(=O)N[C@@H](CO)C(=O)N[C@@H](CCCCN)C(=O)N[C@@H](C)C(=O)N[C@@H](Cc2ccccc2)C(N)=O)C(C)C)[C@@H](C)O)C(C)C)C(C)C)C(C)C)nn1)C(=O)N[C@@H](Cc1ccc(O)cc1)C(=O)N[C@@H](CC(C)C)C(=O)N[C@@H](C)C(=O)N[C@@H](C)C(=O)N[C@H](C(=O)N[C@@H](CC(C)C)C(=O)NCC(=O)N[C@@H](CCCCN)C(=O)N[C@@H](CCCNC(=N)N)C(=O)N[C@@H](Cc1ccc(O)cc1)C(=O)N[C@@H](CCCCN)C(=O)N[C@@H](CCC(N)=O)C(=O)N[C@@H](CCCNC(=N)N)C(=O)N[C@H](C(=O)N[C@@H](CCCCN)C(=O)N[C@@H](CC(N)=O)C(=O)N[C@@H](CCCCN)C(N)=O)C(C)C)C(C)C)C(C)C, the Kb was 646 nM (VIPR2; cAMP accumulation, antagonist; COS-7 transfected; second of 2 determinations, added: PACAP-38).
CN(C)[C@H](CNC(=O)/C=C/c1cccc2ccccc12)Cc1ccc(O)cc1 has a Ki of 2300 nM (ADRB1; cell-free assay).
O=C1c2ccccc2CCCN1CCCCN1CCN(c2cccc(Cl)c2Cl)CC1 has a Ki of 217 nM (ADRA1A (Homo sapiens, UniProt P35348); ligand displacement, radioligand).
C[C@@H](Cc1ccsc1)NC(=O)NC[C@H](Cc1ccc(O)cc1)N(C)C has a Ki of over 100000 nM (HTR1A (Homo sapiens, UniProt P08908); cell-free assay).
The Kb of CSCC[C@H](NC(=O)[C@H](CCC(N)=O)NC(=O)[C@H](CCCCN)NC(=O)[C@H](CCCNC(=N)N)NC(=O)[C@H](Cc1ccc(O)cc1)NC(=O)[C@H](CCCNC(=N)N)NC(=O)[C@H](CO)NC(=O)[C@H](Cc1ccc(O)cc1)NC(=O)[C@H](CO)NC(=O)[C@H](CC(=O)O)NC(=O)[C@@H](NC(=O)[C@@H](N)Cc1ccccc1)[C@@H](C)O)C(=O)N[C@@H](C)C(=O)N[C@H](C(=O)N[C@@H](CCCCN)C(=O)N[C@@H](CCCCN)C(=O)N[C@@H](Cc1ccc(O)cc1)C(=O)N[C@@H](CC(C)C)C(=O)N[C@@H](C)C(=O)N[C@@H](C)C(=O)N[C@H](C(=O)N[C@@H](CC(C)C)C(=O)NCC(=O)N[C@@H](CCCCN)C(=O)N[C@@H](CCCNC(=N)N)C(=O)N[C@@H](Cc1ccc(O)cc1)C(=O)N[C@@H](CCCCN)C(=O)N[C@@H](CCC(N)=O)C(=O)N[C@@H](CCCNC(=N)N)C(=O)N[C@H](C(=O)N[C@@H](CCCCN)C(=O)N[C@@H](CC(N)=O)C(=O)N[C@@H](CCCCn1cc(C[C@H](NC(=O)CNC(=O)[C@H](CO)NC(=O)[C@H](CCCNC(=N)N)NC(=O)[C@H](CO)NC(=O)[C@H](CC(C)C)NC(=O)[C@H](CC(C)C)NC(=O)CNC(=O)[C@H](C)NC(=O)[C@H](CC(C)C)NC(=O)[C@H](CCCNC(=N)N)NC(=O)[C@H](Cc2c[nH]cn2)NC(=O)[C@@H](NC(=O)[C@@H](N)C(C)C)[C@@H](C)O)C(=O)N[C@H](C(=O)N[C@H](C(=O)N[C@@H](CCCCN)C(=O)N[C@@H](CC(N)=O)C(=O)N[C@@H](CC(N)=O)C(=O)N[C@@H](Cc2ccccc2)C(=O)N[C@H](C(=O)N2CCC[C@H]2C(=O)N[C@H](C(=O)N[C@@H](CC(N)=O)C(=O)N[C@H](C(=O)NCC(=O)N[C@@H](CO)C(=O)N[C@@H](CCCCN)C(=O)N[C@@H](C)C(=O)N[C@@H](Cc2ccccc2)C(N)=O)C(C)C)[C@@H](C)O)C(C)C)C(C)C)C(C)C)nn1)C(N)=O)C(C)C)C(C)C)C(C)C is reported as 148 nM (VIPR2; cAMP accumulation, antagonist; added: VIP).
The log LC50 of CC(C)(C)C(=O)OCOP(=O)(OCOC(=O)C(C)(C)C)C1CCCN(O)C1=O (stereo not shown) is reported as over -4 log M (HT-29).
For COc1ccccc1-c1n[nH]c2nc(NC3CCN(C(=O)Cc4ccc(F)cc4F)CC3)ncc12, the relative abundance was 0.9 (bead binding, competition bead pull-down, refers to: LINJ.33.0950; Leishmania donovani extract; 10 µM; baseline: vehicle).

Repeated from above:
The Kb of CSCC[C@H](NC(=O)[C@H](CCC(N)=O)NC(=O)[C@H](CCCCN)NC(=O)[C@H](CCCNC(=N)N)NC(=O)[C@H](Cc1ccc(O)cc1)NC(=O)[C@H](CCCNC(=N)N)NC(=O)[C@H](CO)NC(=O)[C@H](Cc1ccc(O)cc1)NC(=O)[C@H](CO)NC(=O)[C@H](CC(=O)O)NC(=O)[C@@H](NC(=O)[C@@H](N)Cc1ccccc1)[C@@H](C)O)C(=O)N[C@@H](C)C(=O)N[C@H](C(=O)N[C@@H](CCCCN)C(=O)N[C@@H](CCCCN)C(=O)N[C@@H](Cc1ccc(O)cc1)C(=O)N[C@@H](CC(C)C)C(=O)N[C@@H](C)C(=O)N[C@@H](C)C(=O)N[C@H](C(=O)N[C@@H](CC(C)C)C(=O)NCC(=O)N[C@@H](CCCCN)C(=O)N[C@@H](CCCNC(=N)N)C(=O)N[C@@H](Cc1ccc(O)cc1)C(=O)N[C@@H](CCCCN)C(=O)N[C@@H](CCC(N)=O)C(=O)N[C@@H](CCCNC(=N)N)C(=O)N[C@H](C(=O)N[C@@H](CCCCN)C(=O)N[C@@H](CC(N)=O)C(=O)N[C@@H](CCCCn1cc(C[C@H](NC(=O)CNC(=O)[C@H](CO)NC(=O)[C@H](CCCNC(=N)N)NC(=O)[C@H](CO)NC(=O)[C@H](CC(C)C)NC(=O)[C@H](CC(C)C)NC(=O)CNC(=O)[C@H](C)NC(=O)[C@H](CC(C)C)NC(=O)[C@H](CCCNC(=N)N)NC(=O)[C@H](Cc2c[nH]cn2)NC(=O)[C@@H](NC(=O)[C@@H](N)C(C)C)[C@@H](C)O)C(=O)N[C@H](C(=O)N[C@H](C(=O)N[C@@H](CCCCN)C(=O)N[C@@H](CC(N)=O)C(=O)N[C@@H](CC(N)=O)C(=O)N[C@@H](Cc2ccccc2)C(=O)N[C@H](C(=O)N2CCC[C@H]2C(=O)N[C@H](C(=O)N[C@@H](CC(N)=O)C(=O)N[C@H](C(=O)NCC(=O)N[C@@H](CO)C(=O)N[C@@H](CCCCN)C(=O)N[C@@H](C)C(=O)N[C@@H](Cc2ccccc2)C(N)=O)C(C)C)[C@@H](C)O)C(C)C)C(C)C)C(C)C)nn1)C(N)=O)C(C)C)C(C)C)C(C)C is reported as 148 nM (VIPR2; cAMP accumulation, antagonist; added: VIP).
For COc1ccccc1-c1n[nH]c2nc(NC3CCN(C(=O)Cc4ccc(F)cc4F)CC3)ncc12, the relative abundance was 0.9 (bead binding, competition bead pull-down, refers to: LINJ.33.0950; Leishmania donovani extract; 10 µM; baseline: vehicle).
